Published values gathered from unrelated publications.
Every numbered part comes from another study and shows a few of its results, in no order. Substitutions count along the parent as printed.

Set 1
Target: Sal-like protein 4, full length isoform B (SALL4, Homo sapiens, UniProt Q9UJQ4-2, residues 1-616)
Method: universal PBM
Molecule type: double-stranded DNA, one strand shown
Sample: in vitro
Concentration: not given
Setting: 8-mer, flanks averaged, mean of replicates
Direction: higher = stronger binding
Sequence | E-score
ATACGTCG | 0.0725
CAAGTTGA | -0.0603
GAAATGGA | 0.0778
ACTAGTAT | 0.194
CCCAAGGA | -0.0894
AACCGTTG | 0.103
AGGTTCGA | 0.0047
AGAATGCC | 0.0533
AGCATGCA | 0.0447
CATGATGG | -0.113
GTAGACCA | -0.0871
ACCTCTAT | 0.0914
AGACACAG | -0.00315

Set 2
Target: ABI1, truncated, D143A, DHFR fusion (Arabidopsis thaliana)
Method: DHFR PCA, deep sequencing
Sample: yeast
Setting: methotrexate growth selection, single substitutions
Added: (+)-ABA 0.0091 µM
Relative to: wild-type fitted maximum
Direction: higher = stronger binding
Starting sequence: PYL1, truncated, DHFR fusion (Arabidopsis thaliana); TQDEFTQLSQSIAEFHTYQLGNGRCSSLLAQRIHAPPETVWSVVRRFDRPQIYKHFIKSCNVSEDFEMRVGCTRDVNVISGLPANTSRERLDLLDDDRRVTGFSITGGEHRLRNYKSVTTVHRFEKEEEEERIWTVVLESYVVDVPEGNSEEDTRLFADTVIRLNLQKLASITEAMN
Substitution | relative binding score
V100R | 0.077%
R163N | -1.97%
I52T | 42.3%
M68Q | -3.33%
W41Q | -0.191%
G108M | -4.25%
I162A | 1.85%
Q167T | 4.37%
D48I | 4.8%
M176Y | 1.51%
N22D | 43%
T120L | -8.11%

Set 3
Target: Ras GTPase-activating protein-binding protein 1, RRM domain (G3BP1, Homo sapiens, UniProt Q13283)
Chain of UniProt Q13283 (whole entry, looked up): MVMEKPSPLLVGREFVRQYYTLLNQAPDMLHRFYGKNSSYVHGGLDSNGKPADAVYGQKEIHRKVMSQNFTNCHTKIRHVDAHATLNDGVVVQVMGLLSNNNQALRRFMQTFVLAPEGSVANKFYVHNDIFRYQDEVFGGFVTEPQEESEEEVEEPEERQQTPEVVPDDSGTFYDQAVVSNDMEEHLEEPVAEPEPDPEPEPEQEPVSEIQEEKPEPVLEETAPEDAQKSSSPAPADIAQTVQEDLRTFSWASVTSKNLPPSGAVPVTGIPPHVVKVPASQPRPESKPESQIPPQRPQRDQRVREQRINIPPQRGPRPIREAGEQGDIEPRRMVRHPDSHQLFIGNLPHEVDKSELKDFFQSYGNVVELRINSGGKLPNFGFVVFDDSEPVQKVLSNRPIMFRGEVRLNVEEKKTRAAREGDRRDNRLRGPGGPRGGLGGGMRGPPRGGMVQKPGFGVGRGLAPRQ
Method: RNA Bind-n-Seq
Molecule type: RNA
Sample: in vitro
Concentration: 1 µM
Setting: whole 134-nt RNA, ends assumed
Added: 150 mM KCl
Relative to: input library
Direction: higher = stronger binding
Sequence | log2 enrichment
GGGAGUUCUACAGUCCGACGAUCAAGUCCUGUGCUACACAUCGUAUGUACCGAAUCGGAAAAAAAGGUUUGGUUUUUGGAAAGUAUUAUGUUACGCCGUUCGGAUCUGCACUUUGGAAUUCUCGGGUGUCAAGG | -0.245
GGGAGUUCUACAGUCCGACGAUCUGGCUCUGGUGGCAUGCGGGGAGGAAGAGGUGGCCUCAUGGAUCGUGGUGGUCCCGGUGGAAUGUUCAGAGGUGGCCGUGGUGGAGACAGUGGAAUUCUCGGGUGUCAAGG | 0.58
GGGAGUUCUACAGUCCGACGAUCUCCUGUGCUACACAUCGUAUGUACCGAAUCGGGGAAAGGGGUUUUUGGGGUUUUUGGGGAAAGUAUUAUGUUACGCCGUUCGGAUCUGCAUGGAAUUCUCGGGUGUCAAGG | 1.1
GGGAGUUCUACAGUCCGACGAUCCCUGUGCUACACAUCGUAUGUACCGAAUCGGGGAAAAAAAGGGGUUUGGGGUUUUUGGGGAAAGUAUUAUGUUACGCCGUUCGGAUCUGCUGGAAUUCUCGGGUGUCAAGG | 0.941

Set 4
Target: Interferon regulatory factor 5, full length, phosphomimetic (IRF5, Homo sapiens, UniProt Q13568-2, residues 1-514, K96S/S451D/S453D/S456D/S462D)
Method: protein-binding microarray
Molecule type: double-stranded DNA, one strand shown
Sample: in vitro
Concentration: 250 nM
Setting: 60-bp whole probe
Added: salmon DNA 0.4 mg/ml
Relative to: random background probes
Direction: higher = stronger binding
Constant ends, left off below: GCCTAGCAC … GTCTTGATTCGCTTGACGCTGCTG
Sequence | log fluorescence [z-score]
TTTTTTTTTTTTTACTTCGGGTGCTAG | 1.28
TTAGATCTCAGTTTCGATCAGTGCTAG | 9.38
GACGGTATCCTACTGCTGATGTGCTAG | -0.157
TTTTTTTTTTTTTTTTGGAAGTGCTAG | 1.26
TCAAGTTTCTCCTTTCCACTGTGCTAG | 2.38
GTCGGTCTCGGTATCGGGACGTGCTAG | 1.63
GATTCTCCTGCCTCAGCCTCGTGCTAG | -0.213
TTTTCATTGTTTTTCATCATGTGCTAG | 3.3
GACGGTTTAGGGACTGGGGACGTGCTA | 0.102
TCATTAATGCTTCTGGGACTGTGCTAG | 0.12
TTAGGTTTCCTTTCGCTTTAGTGCTAG | 7.28
ATCATTTTAGTTTTCATTATGTGCTAG | 2.98
GACGGTTTCTACTTTCGGGACGTGCTA | 7.58
GACGGTAGCGGTATCGGGACGTGCTAG | 0.692
TCTCATTTCCAATTACCTTTGTGCTAG | 1.67
TTAGATTCCAGTTTCGACTAGTGCTAG | 7.71
TGCTTTTTAGAAATTTTTTTTGTGCTA | 0.976

Set 5
Target: Protein C-ets-1 (ETS1, Homo sapiens, UniProt P14921, residues 1-441, full length assumed)
Method: protein-binding microarray
Molecule type: double-stranded DNA, one strand shown
Sample: in vitro
Concentration: not given
Setting: k-mer, scored over probes, only values ≥0.25
Direction: higher = stronger binding
Construct (chain): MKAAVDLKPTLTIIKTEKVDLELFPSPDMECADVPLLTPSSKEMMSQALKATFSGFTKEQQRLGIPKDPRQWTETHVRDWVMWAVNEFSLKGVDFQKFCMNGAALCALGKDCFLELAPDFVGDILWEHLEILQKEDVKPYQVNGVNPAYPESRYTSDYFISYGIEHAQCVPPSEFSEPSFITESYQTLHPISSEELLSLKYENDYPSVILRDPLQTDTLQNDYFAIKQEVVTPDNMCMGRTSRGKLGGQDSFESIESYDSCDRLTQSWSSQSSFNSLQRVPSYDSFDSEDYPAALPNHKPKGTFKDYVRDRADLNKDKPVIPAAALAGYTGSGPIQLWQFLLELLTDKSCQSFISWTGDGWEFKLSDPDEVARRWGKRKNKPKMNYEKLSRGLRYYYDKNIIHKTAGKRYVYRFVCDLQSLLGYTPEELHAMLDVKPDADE
Sequence | E-score
CCGGAAAA | 0.468
CGGATAGA | 0.317
CCCGGAAA | 0.482
AGGATAGC | 0.256
ATATTCCG | 0.279
CCGGGAAG | 0.415
CCGGCAGC | 0.254
GAAATTTC | 0.306
GAGGAAAC | 0.415
GGATGCAA | 0.386
CTTCCAGC | 0.313

Set 6
Target: RNA binding protein fox-1 homolog 2, RRM domain, GST-SBP tag (RBFOX2, Homo sapiens, UniProt O43251-10, residues 100-194)
Method: RNA Bind-n-Seq
Molecule type: RNA
Sample: in vitro
Concentration: 365 nM
Setting: natural RNA segment, single round, ends assumed
Relative to: no-protein control
Direction: higher = stronger binding
Constant ends, left off below: GGGAGUUCUACAGUCCGACGAUC … UGGAAUUCUCGGGUGCCAA
Target sequence (chain): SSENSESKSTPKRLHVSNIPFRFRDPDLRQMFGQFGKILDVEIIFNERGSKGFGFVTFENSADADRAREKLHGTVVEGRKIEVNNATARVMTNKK
Sequence | RBNS enrichment (R)
CAGACCAGGACGCUUCCUCAAGCCCAGCCUUCUACAGAGAGUGUGAACGGUACAGCCCCGGCCUGACCCGGGGACCUUCAGCCUGGACACCCGGCAGCUUCUGGAGUUUG | 0.508
GAUGUUUGUAAUUUUCAUGAAAAUGUGUGAUUUUCGUUUGUGAUAUGAAAGAUCAUUAAUCAAAGAAUAAGGAAGAAACAAGGUAAAACAGUCCUAAAAUGAUGGAACUA | 0.488
CUGUAGCCACUGCCCAGCACCUCCUCAGGCCAGCCUGGUGCCACAGUCACGUGGGGGAAGACCUCAGCCACAGCUGUAAGCAGCUCUCUGCCAGCCACAUGGCCGGGGAC | 0.367
CAGCAGAAAUAGAUAGAUGUGCUGUUGCCACUGGACUGAUGAAGGUGGCUGUCUUGGAACUGGGAGACAGGUCCUCAGAGGUGCACUCAGGCAACAGGACAGCCAUCUCU | 0.597
UAUCCCCGCACUUAGUCAUUCGUGGUAACUAACAAUUUUGAAAUACUCAUAUAAAAUGAACAGGAAAGUGUUAGUGAUUGGGUGAUUUGAGCUACAUCUUGUUGAGCAAG | 0.339
AUUUUUCUGAACACUGCAAAAAUAGAACGUAGCAAAAUGGCUUCAGUUAUCACUUUUGGGUGUCUGUAUCCUAAGAAGUUUCUGAAAAGAUCUAAAGCCUUUUUAUCCCA | 0.337
UAUAUAUAUACUUCUAUUUGUGGGUACUUUAGGAAAAUGCCCUUUGGUCACUGUAAAUAUGAAUUGUGACCCCAUCCCUUCCCGCAUGAGCCCAGUGAGUCCCAGCAGCU | 4
GGUGGCUAAAUACCUAGCCUUUUACAUGUAAACCUGUCUGCAAAAUUAGCUUUUUUAAAAAAAAAAAAAAAAAAAUUGGGGGGGUUAAUUUAUCAUUCAGAAAUCUUGCA | 2.22

Set 7
Target: Histone acetyltransferase KAT6A, winged helix 2, GST fusion (KAT6A, Homo sapiens, UniProt Q92794, residues 85-181)
Method: protein binding microarray
Molecule type: double-stranded DNA, one strand shown
Sample: in vitro
Concentration: not given
Setting: 8-mer, flanks averaged, mean of 2 arrays, mostly near background
Relative to: not given
Direction: higher = stronger binding
Target sequence (chain): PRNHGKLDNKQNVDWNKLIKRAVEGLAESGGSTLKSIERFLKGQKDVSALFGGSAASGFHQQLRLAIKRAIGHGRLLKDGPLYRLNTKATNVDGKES
Sequence | E-score
AGGACCGG | -0.0592
CAATCCAC | -0.0212
CCGAACCA | 0.041
ACGGTACC | 0.0384
ATATCTAC | -0.0882
GCTTACCA | 0.181
CCTCTTAA | -0.0256
CCGGCTTA | 0.155
GGCAACCC | 0.0344
AGCCCTGG | -0.141
GCATAGTA | -0.0241
AAGGCGCC | 0.0763

Set 8
Target: BIRC6 UBC core domain (UniProt Q9NR09)
Method: yeast two-hybrid
Sample: yeast
Setting: mostly zero background
Relative to: not given
Direction: higher = stronger interaction
B1: TRIM31 RING domain (UniProt Q9BZY9); chain FVNKLQEEVICPICLDILQKPVTIDCGHNFCLKCITQIGETSCGFFKCPLCKTSVRKNAIRF
B2: DEF8 RING domain (UniProt Q6ZN54); chain AGRLGCSLTEIHTLFAKHIKLDCERCQAKGFVCELCREGDVLFPFDSHTSVCADCSAVFHRDCYYDNSTTCPKCARLSLRK
B3: RNF152 RING domain (UniProt Q8N8N0); chain ETLSQDSLLECQICFNYYSPRRRPKLLDCKHTCCSVCLQQMRTSQKDVRCPWCRGVTKLPPGFS
B4: MEX3B RING domain (UniProt Q6ZN04); chain SGLRRKGSRDCSVCFESEVIAALVPCGHNLFCMECANRICEKSEPECPVCHTAVTQAIRIF
B5: TRIM60 RING domain (UniProt Q495X7); chain ALVNLQEESSCPICLEYLKDPVTINCGHNFCRSCLSVSWKDLDDTFPCPVCRFCFPYKSFRR
Residues (chain): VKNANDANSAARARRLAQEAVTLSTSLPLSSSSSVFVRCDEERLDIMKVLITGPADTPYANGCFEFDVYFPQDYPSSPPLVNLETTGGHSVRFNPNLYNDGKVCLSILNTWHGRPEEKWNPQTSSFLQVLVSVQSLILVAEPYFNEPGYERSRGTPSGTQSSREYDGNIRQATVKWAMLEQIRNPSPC
Sequence | lacZ reporter activity
PEELAVNNDDCAICWDSMQAARKLPCGHLFHNSCLRSWLEQDTSCPTCRMSLNIADNNR (AMFR RING domain (UniProt Q9UKV5)) | 0
B1 (TRIM31 RING domain) | 0
B2 (DEF8 RING domain) | 0
B3 (RNF152 RING domain) | 0
B4 (MEX3B RING domain) | 0
B5 (TRIM60 RING domain) | 0

Some of these lines once more (set 7):
Sequence | E-score
CCTCTTAA | -0.0256
CAATCCAC | -0.0212
ACGGTACC | 0.0384
GGCAACCC | 0.0344
ATATCTAC | -0.0882
AGCCCTGG | -0.141
CCGAACCA | 0.041
